# Measured values gathered from unrelated publications.
# Numbered parts are unrelated; each lists some results of a single study.
# Sequence of UniProt P10721 (whole entry, unmodified, looked up): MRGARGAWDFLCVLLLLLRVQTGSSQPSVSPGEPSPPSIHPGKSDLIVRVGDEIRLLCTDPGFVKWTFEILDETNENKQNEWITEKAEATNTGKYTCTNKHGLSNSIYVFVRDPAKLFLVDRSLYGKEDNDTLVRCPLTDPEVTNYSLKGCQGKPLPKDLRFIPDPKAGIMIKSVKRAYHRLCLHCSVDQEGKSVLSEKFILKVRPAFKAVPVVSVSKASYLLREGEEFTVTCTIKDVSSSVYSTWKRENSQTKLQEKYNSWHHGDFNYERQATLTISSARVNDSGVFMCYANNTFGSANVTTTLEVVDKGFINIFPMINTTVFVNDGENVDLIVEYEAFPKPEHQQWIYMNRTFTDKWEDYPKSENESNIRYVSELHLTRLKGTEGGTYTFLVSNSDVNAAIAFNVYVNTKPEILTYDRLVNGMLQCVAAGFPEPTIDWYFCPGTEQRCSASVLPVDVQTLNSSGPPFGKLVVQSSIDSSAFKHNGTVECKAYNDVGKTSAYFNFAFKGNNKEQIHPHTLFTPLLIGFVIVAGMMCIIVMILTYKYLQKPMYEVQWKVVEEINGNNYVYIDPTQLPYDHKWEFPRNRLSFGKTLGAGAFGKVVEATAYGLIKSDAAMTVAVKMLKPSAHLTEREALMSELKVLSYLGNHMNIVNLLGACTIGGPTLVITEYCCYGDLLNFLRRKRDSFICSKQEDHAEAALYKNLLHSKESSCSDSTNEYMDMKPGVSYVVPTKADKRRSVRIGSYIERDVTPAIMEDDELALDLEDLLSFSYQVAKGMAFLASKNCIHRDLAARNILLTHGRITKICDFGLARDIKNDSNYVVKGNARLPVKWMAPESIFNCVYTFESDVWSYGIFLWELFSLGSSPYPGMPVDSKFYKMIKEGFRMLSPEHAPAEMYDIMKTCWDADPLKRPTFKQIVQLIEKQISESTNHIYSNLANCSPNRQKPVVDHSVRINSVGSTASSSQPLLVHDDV
# Sequence of UniProt Q13976 (whole entry, looked up): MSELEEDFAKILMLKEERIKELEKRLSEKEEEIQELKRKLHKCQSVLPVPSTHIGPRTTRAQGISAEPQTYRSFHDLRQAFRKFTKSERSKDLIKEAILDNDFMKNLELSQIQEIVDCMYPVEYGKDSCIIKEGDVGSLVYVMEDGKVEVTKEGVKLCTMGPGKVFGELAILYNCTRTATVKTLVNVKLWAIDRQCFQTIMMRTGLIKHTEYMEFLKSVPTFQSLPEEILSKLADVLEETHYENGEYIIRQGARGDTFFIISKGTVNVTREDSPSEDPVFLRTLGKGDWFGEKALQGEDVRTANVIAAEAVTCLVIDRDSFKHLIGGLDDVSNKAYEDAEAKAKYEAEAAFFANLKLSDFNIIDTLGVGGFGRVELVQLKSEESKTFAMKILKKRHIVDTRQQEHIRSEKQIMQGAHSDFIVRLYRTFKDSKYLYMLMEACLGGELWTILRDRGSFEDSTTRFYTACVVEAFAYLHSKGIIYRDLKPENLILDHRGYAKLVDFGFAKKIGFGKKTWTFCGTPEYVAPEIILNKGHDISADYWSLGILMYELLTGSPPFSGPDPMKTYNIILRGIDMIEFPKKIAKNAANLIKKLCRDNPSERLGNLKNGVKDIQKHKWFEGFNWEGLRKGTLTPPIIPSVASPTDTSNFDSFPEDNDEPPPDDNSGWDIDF
# Sequence of UniProt Q8NE63 (whole entry, looked up): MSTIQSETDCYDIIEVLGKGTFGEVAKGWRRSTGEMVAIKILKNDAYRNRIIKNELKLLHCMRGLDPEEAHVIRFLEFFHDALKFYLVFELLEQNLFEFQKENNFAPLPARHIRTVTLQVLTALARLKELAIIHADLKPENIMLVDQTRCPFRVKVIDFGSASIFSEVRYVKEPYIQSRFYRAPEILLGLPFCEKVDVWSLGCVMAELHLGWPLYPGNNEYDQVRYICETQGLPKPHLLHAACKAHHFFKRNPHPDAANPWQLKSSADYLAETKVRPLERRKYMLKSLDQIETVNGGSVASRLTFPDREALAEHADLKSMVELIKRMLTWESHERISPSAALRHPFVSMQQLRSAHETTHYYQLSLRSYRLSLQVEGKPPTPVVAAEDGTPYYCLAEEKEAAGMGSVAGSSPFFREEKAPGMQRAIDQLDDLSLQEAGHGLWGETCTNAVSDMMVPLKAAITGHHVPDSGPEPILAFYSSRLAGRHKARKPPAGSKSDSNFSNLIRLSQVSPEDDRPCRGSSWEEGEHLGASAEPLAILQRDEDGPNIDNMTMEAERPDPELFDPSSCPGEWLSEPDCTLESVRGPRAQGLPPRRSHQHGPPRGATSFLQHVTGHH
# Sequence of UniProt Q02779 (whole entry, looked up): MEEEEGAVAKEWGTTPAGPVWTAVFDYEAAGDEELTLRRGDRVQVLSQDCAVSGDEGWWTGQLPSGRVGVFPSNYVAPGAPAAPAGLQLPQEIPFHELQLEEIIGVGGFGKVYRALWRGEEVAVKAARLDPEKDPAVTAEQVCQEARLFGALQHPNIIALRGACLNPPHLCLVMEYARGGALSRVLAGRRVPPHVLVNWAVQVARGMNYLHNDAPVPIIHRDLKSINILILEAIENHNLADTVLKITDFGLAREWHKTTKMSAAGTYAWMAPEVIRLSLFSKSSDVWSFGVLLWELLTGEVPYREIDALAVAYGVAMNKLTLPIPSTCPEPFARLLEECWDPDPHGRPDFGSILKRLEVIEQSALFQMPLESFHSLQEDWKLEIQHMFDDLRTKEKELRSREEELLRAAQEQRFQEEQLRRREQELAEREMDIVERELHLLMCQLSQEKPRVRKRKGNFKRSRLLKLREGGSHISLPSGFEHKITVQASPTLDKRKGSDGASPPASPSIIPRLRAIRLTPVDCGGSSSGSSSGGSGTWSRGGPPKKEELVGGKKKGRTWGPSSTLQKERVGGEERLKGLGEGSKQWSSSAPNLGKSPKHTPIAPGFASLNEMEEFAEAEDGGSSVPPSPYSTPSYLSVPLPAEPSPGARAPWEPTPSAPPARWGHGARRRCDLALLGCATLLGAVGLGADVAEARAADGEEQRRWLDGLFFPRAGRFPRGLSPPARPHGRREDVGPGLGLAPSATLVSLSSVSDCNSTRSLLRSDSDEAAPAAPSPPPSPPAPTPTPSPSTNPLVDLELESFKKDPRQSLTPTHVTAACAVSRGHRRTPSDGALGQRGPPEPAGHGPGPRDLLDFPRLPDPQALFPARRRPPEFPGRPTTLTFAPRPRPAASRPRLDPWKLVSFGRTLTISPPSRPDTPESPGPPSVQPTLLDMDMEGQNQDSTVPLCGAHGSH
# Sequence of UniProt Q9NRH2 (whole entry, looked up): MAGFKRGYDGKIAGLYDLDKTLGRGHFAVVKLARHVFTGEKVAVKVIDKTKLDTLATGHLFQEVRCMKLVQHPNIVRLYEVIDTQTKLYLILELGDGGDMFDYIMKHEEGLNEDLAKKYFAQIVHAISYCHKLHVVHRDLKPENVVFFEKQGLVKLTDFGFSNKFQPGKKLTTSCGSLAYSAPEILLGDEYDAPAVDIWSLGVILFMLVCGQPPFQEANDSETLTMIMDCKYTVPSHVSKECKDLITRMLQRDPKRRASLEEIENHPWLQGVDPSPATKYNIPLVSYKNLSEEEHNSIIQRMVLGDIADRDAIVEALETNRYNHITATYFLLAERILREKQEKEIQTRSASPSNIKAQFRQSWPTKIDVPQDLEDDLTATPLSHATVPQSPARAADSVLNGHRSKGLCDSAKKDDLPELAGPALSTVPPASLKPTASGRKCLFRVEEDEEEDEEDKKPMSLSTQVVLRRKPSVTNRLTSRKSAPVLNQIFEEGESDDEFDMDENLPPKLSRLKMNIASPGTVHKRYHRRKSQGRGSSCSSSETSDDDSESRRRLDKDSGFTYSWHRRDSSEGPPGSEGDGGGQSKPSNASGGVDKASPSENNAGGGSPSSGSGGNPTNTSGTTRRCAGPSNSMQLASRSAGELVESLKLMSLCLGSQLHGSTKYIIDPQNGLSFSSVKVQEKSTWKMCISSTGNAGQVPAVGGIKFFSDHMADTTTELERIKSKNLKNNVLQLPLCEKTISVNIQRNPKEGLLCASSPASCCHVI
# Sequence of UniProt P42679 (whole entry, looked up): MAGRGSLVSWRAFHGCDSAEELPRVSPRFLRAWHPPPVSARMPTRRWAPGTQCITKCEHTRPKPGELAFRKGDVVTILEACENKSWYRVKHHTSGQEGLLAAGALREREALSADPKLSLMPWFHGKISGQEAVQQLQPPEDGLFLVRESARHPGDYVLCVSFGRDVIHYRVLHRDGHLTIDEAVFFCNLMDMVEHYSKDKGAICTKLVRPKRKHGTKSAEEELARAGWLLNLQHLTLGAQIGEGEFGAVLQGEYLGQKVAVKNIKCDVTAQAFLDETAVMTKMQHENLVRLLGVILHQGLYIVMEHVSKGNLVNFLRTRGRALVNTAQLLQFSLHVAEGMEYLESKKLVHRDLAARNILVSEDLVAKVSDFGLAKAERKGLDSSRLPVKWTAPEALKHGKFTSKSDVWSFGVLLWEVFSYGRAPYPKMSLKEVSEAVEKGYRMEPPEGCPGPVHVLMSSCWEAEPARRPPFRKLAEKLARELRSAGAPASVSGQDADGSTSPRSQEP
# Sequence of UniProt P0C264 (whole entry, looked up): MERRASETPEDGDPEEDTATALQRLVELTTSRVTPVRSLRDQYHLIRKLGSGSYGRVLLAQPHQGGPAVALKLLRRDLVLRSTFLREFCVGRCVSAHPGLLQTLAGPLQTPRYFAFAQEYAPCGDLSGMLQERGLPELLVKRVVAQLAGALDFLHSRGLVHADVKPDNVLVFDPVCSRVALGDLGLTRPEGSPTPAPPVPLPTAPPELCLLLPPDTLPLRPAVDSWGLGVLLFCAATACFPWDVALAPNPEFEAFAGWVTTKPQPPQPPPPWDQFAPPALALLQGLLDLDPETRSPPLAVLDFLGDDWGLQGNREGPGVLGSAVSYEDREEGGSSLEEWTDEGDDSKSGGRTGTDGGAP

# Set 1
# Compound: Cc1sc(C(=O)NC2COC2)cc1-n1cc(NC(=O)Nc2c(F)cccc2Cl)cn1
# Concentration: 10 µM
target,read-out,action,method,reference,remaining activity
"MAP3K6 (Homo sapiens, UniProt O95382)",enzyme activity,inhibitor,,,79.3%
"Protein kinase C beta type, isoform beta-II (PRKCB, Homo sapiens, UniProt P05771)",kinase activity,,kinase panel profiling,,98.3%
"MINK1 (Homo sapiens, UniProt Q8N4C8)",enzyme activity,,,untreated control,102%
"MAPK3 (Homo sapiens, UniProt P27361)",enzyme activity,,,untreated control,107%
"PKN3 (Homo sapiens, UniProt Q6P5Z2)",enzyme activity,inhibitor,,,98.6%
"NEK6 (Homo sapiens, UniProt Q9HC98)",enzyme activity,,,untreated control,93.3%
"Cyclin-dependent kinase 2, with cyclin O (CDK2, Homo sapiens, UniProt P24941)",enzyme activity,,,untreated control,105%
"MYLK4 (Homo sapiens, UniProt Q86YV6)",enzyme activity,,,untreated control,109%
"SGK2 (Homo sapiens, UniProt Q9HBY8)",enzyme activity,,,untreated control,94%
"HIPK4 (Homo sapiens, UniProt Q8NE63)",enzyme activity,,,untreated control,97.4%
"NEK5 (Homo sapiens, UniProt Q6P3R8)",enzyme activity,,,untreated control,102%
"MATK (Homo sapiens, UniProt P42679)",enzyme activity,,,untreated control,97.3%

# Set 2
# SMILES: COc1ccc(COc2ccc(Cc3cnc(N)nc3N)cc2OC)cc1
# Read-out: enzyme activity
# Action: inhibitor
# Concentration: 0.5 µM
# Reference: control
target,remaining activity [%]
"CHEK1 (Homo sapiens, UniProt O14757)",107
"MAPK13 (Homo sapiens, UniProt O15264)",96
"CSNK2A1 (Homo sapiens, UniProt P68400)",105
"PRKCI (Homo sapiens, UniProt P41743)",91.6
"LRRK2 (Homo sapiens, UniProt Q5S007)",92.6
"NEK4 (Homo sapiens, UniProt P51957)",92.2
"KIT (Homo sapiens, UniProt P10721)",106
"MAPK12 (Homo sapiens, UniProt P53778)",102
"MAP3K10 (Homo sapiens, UniProt Q02779)",96.4
"PLK2 (Homo sapiens, UniProt Q9NYY3)",116
"MAP2K6 (Homo sapiens, UniProt P52564)",87.4
"Cyclin-dependent kinase 9, with cyclin T1 (CDK9, Homo sapiens, UniProt P50750)",92.5
"PRKCD (Homo sapiens, UniProt Q05655)",87.8
"CSNK1A1 (Homo sapiens, UniProt P48729)",97.9
"AKT3 (Homo sapiens, UniProt Q9Y243)",96.5
"PRKG1 (Homo sapiens, UniProt Q13976)",98.3
"MAP4K2 (Homo sapiens, UniProt Q12851)",120
"WNK2 (Homo sapiens, UniProt Q9Y3S1)",94.6

# Set 3
# SMILES: Nc1cnc(N2CCc3cc(S(=O)(=O)Nc4c(F)cc(Cl)cc4F)cc(N4CCCC4=O)c32)nc1
# Read-out: cell-free assay
# Method: competition with immobilised ligand
# Concentration: 1 µM
target,remaining binding
"DCLK3 (Homo sapiens, UniProt Q9C098)",85%
"AKT1 (Homo sapiens, UniProt P31749)",100%
"STK38 (Homo sapiens, UniProt Q15208)",99%
"TNK2 (Homo sapiens, UniProt Q07912)",91%
"Ribosomal protein S6 kinase alpha-2, C-terminal kinase domain (RPS6KA2, Homo sapiens, UniProt Q15349)",100%
"MAP4K5 (Homo sapiens, UniProt Q9Y4K4)",73%
"ROCK1 (Homo sapiens, UniProt Q13464)",96%
"TXK (Homo sapiens, UniProt P42681)",83%
"NEK11 (Homo sapiens, UniProt Q8NG66)",100%
"KIT (Homo sapiens, UniProt P10721)",100%
"EGFR (Homo sapiens, UniProt P00533, del752-759)",100%
"KIT (Homo sapiens, UniProt P10721, A829P)",100%
"PRKG1 (Homo sapiens, UniProt Q13976)",97%
"SNRK (Homo sapiens, UniProt Q9NRH2)",100%
"Tyrosine-protein kinase ABL1, phosphorylated (ABL1, Homo sapiens, UniProt P00519, M351T)",100%
"Ribosomal protein S6 kinase alpha-3, N-terminal kinase domain (RPS6KA3, Homo sapiens, UniProt P51812)",100%
"EGFR (Homo sapiens, UniProt P00533, L861Q)",100%
"FGFR2 (Homo sapiens, UniProt P21802)",100%
"ERBB3 (Homo sapiens, UniProt P21860)",100%
"Tyrosine-protein kinase ABL1, non-phosphorylated (ABL1, Homo sapiens, UniProt P00519)",100%
"RIPK1 (Homo sapiens, UniProt Q13546)",92%
"LATS2 (Homo sapiens, UniProt Q9NRM7)",100%
"PKN1 (Homo sapiens, UniProt Q16512)",95%
"HIPK2 (Homo sapiens, UniProt Q9H2X6)",100%
"SBK3 (Homo sapiens, UniProt P0C264)",100%

# Set 4
# Target: Bromodomain-containing protein 4, BD1 (BRD4, Homo sapiens, UniProt O60885)
# Read-out: acetyl-histone H4 peptide binding
# Method: AlphaScreen displacement
# Concentration: 50 µM
SMILES,inhibition
OC1CCN(Cc2c(-c3ccco3)[nH]c3ncccc23)CC1,4.3%
Nc1ncc(-c2cccnc2)nc1-c1ccc(O)cc1,15.1%
COc1cc(/C=C/C(=O)CC(=O)/C=C/c2ccc(O)c(OC)c2)ccc1O.COc1cc(C=CC(=O)CC(=O)C=Cc2ccc(O)c(OC)c2)ccc1O,75.2%
Fc1cccc(-c2nnc3ccc(SCc4cccnc4)nn23)c1,-5.1%
N#Cc1c(NC(=O)c2cccc3ccccc23)sc2c1CCCC2,16.9%
O=c1c(-c2ccc(O)cc2)coc2cc(O)cc(O)c12.O=c1c(-c2ccc(O)cc2)coc2cc(O)cc(O)c12,21.1%
O=[N+]([O-])c1ccc(-c2cc(C(F)(F)F)[nH]n2)cc1,23.2%
CCOC(=O)C(C)Sc1ccc2nnc(-c3ccc(OC)c(OC)c3)n2n1 (centres unmarked),27.3%
CC(=O)NNC(=O)c1c(O)c2ccccc2[nH]c1=O,35.9%
O=C(Nc1cccc(Nc2nccc(Nc3cccc(C(F)(F)F)c3)n2)c1)C1CC1,38.4%
NCCNc1nc(-c2ccccc2O)nc2ccccc12,32.9%
Clc1ccc(Nc2nccn3c(-c4ccsc4)cnc23)cc1,42.3%
O=C(O)c1cc(N(Cc2ccccc2O)Cc2cc(O)ccc2O)ccc1O,30.7%

# Repeated from above (set 2):
target,remaining activity [%]
"Cyclin-dependent kinase 9, with cyclin T1 (CDK9, Homo sapiens, UniProt P50750)",92.5
"PRKCD (Homo sapiens, UniProt Q05655)",87.8
"CSNK1A1 (Homo sapiens, UniProt P48729)",97.9
"AKT3 (Homo sapiens, UniProt Q9Y243)",96.5
"PRKG1 (Homo sapiens, UniProt Q13976)",98.3
"MAP4K2 (Homo sapiens, UniProt Q12851)",120
"WNK2 (Homo sapiens, UniProt Q9Y3S1)",94.6
